Measured values collected from several papers.
Protocols differ between the studies behind these lines. Numbers after ± are the reported error. ≈ marks a conversion by molar mass, not a printed value.

SMILES	assay	test system	conditions	how to read	quantity	value
CC(C)(c1ccc(O)cc1)c1ccc(O)cc1	ultrafiltration	cow milk whey	2000 nM nominal in whole milk		dose fraction in permeate	19%
CC[C@H](C)[C@H](NC(=O)[C@H](CCCCN)NC(=O)[C@H](CCC(=O)O)NC(=O)[C@H](CCCCN)NC(=O)[C@H](CO)NC(=O)[C@H](CCCCN)NC(=O)[C@H](CCCNC(=N)N)NC(=O)[C@H](Cc1ccccc1)NC(=O)[C@H](Cc1ccccc1)NC(=O)[C@H](CC(=O)O)NC(=O)CNC(=O)[C@H](CC(C)C)NC(=O)[C@@H](N)CC(C)C)C(=O)NCC(=O)N[C@@H](CCCCN)C(=O)N[C@@H](CCC(=O)O)C(=O)N[C@@H](Cc1ccccc1)C(=O)N[C@@H](CCCCN)C(=O)N[C@@H](CCCNC(=N)N)C(=O)N[C@H](C(=O)N[C@H](C(=O)N[C@@H](CCC(N)=O)C(=O)N[C@@H](CCCNC(=N)N)C(=O)N[C@H](C(=O)N[C@@H](CCCCN)C(=O)N[C@@H](CC(=O)O)C(=O)N[C@@H](Cc1ccccc1)C(=O)N[C@@H](CC(C)C)C(=O)N[C@@H](CCCNC(=N)N)C(=O)N[C@@H](CC(N)=O)C(=O)N[C@@H](CC(C)C)C(=O)N[C@H](C(=O)N1CCC[C@H]1C(=O)N[C@@H](CCCNC(=N)N)C(=O)N[C@H](C(=O)N[C@@H](CCC(=O)O)C(=O)N[C@@H](CO)C(=O)O)[C@@H](C)O)C(C)C)[C@@H](C)CC)C(C)C)[C@@H](C)CC	LC-MS	buffer with trypsin	40 µM, 720 min, pH 7.5, 37 °C	reference: 0 h	remaining intact peptide	0%
COC(=O)C1=CCCN(C)C1		nude mice	intraperitoneal, 4 weeks		tolerated dose	≤ 50 mg/kg/day
CN(C(=O)n1cnc(-c2ccc[n+]([O-])c2)c1)C1CCCCC1		Wistar rat, pons	oral, 10 mg/kg, 1 h, single dose		concentration	372 ± 50.3 ng/g
CO[C@H]1C[C@@H]2CC[C@@H](C)[C@@](O)(O2)C(=O)C(=O)N2CCCC[C@H]2C(=O)O[C@H]([C@H](C)C[C@@H]2CC[C@@H](OC(=O)NCCOCCOCCOCCOCCOCCOCCOCCOCCC(=O)N3CCc4cc(Cn5nc(-c6ccc7oc(N)nc7c6)c6c(N)ncnc65)ccc4C3)[C@H](OC)C2)C[C@@H](O)[C@H](C)/C=C(\C)[C@@H](O)[C@@H](OC)C(=O)[C@H](C)C[C@H](C)/C=C/C=C/C=C/1C		advanced solid tumour patients	intravenous, dose not given, grade ≥3, all doses		incidence of TEAE	68.4%
O=S(=O)(Nc1ccccc1)c1ccc(NC(=S)Nc2ccccc2)cc1	measured: CK	female mouse, blood	oral, 5 mg/kg daily, 14 days		serum enzyme activity	4840 U/L
CN[C@@H](C)C(=O)N[C@H]1CN(S(=O)(=O)c2cccc(S(=O)(=O)N3CC[C@H]4CC[C@@H](C(=O)NC(c5ccccc5)c5ccccc5)N4C(=O)[C@@H](NC(=O)[C@H](C)NC)C3)c2)CC[C@H]2CC[C@@H](C(=O)NC(c3ccccc3)c3ccccc3)N2C1=O		patients advanced solid tumours	dose not given, all grades all doses		treatment-related AST elevation	7.1%
CCNCCCNC/C=C\CNCCCNCC		human, advanced solid tumours	intravenous, dose not given	reference: patients	drug-related TEAE, skin disorders	10.9%
Cn1cc(-c2nc(N[C@@H]3CCCC[C@@H]3N)c(F)c3c2C(=O)NC3)cn1	measured: Hematochezia	patients with relapsed or refractory AML	oral, 80 mg twice daily		hemorrhagic adverse events	17%
CC(C)CC(=O)OC[C@H]1O[C@@](C#N)(c2ccc3c(N)ncnn23)[C@H](O)[C@@H]1O		Humans plasma	5 µM, 30 min		remaining compound	7.68 ± 0.3%
O=S(=O)(CC1CS1)c1ccc(Oc2ccccc2)cc1 (racemic)	NMR	methanol	one month, room temperature, added: NaOAc, Zn(OAc)2		unreacted compound	40%
O=C1Nc2cc3[nH]nc(-c4ccncc4)c3cc2CN1Cc1ccccc1	CTCAE v4.03	advanced solid tumour patients	intravenous, 6.4 mg/kg		patients with ≥1 TEAE	89%
CC[C@H](C)[C@H](NC(=O)[C@H](Cc1ccccc1)NC(=O)[C@H](CCC(=O)O)NC(=O)[C@H](CCCNC(=N)N)NC(=O)[C@H](C)NC(=O)[C@H](C)NC(=O)[C@H](CCC(N)=O)NC(=O)[C@H](CCC(=O)O)NC(=O)[C@H](CCC(=O)O)NC(=O)[C@H](CC(C)C)NC(=O)[C@H](Cc1ccc(O)cc1)NC(=O)[C@H](CO)NC(=O)[C@H](CO)NC(=O)[C@@H](NC(=O)[C@H](CC(=O)O)NC(=O)[C@H](CO)NC(=O)[C@@H](NC(=O)[C@H](Cc1ccccc1)NC(=O)[C@@H](NC(=O)CNC(=O)[C@H](CCC(=O)O)NC(=O)[C@H](C)NC(=O)CCc1cnc[nH]1)[C@@H](C)O)[C@@H](C)O)C(C)C)C(=O)N[C@@H](C)C(=O)N[C@@H](Cc1c[nH]c2ccccc12)C(=O)N[C@@H](CC(C)C)C(=O)N[C@H](C(=O)N[C@@H](CCCNC(=N)N)C(=O)NCC(=O)N[C@@H](CCCNC(=N)N)C(=O)N[C@@H](CCCCNC(=O)COCCOCCNC(=O)COCCOCCNC(=O)CC[C@H](NC(=O)CCCCCCCCCCCCCCCCC(=O)O)C(=O)O)C(=O)NCC(=O)NCC(=O)N[C@@H](CO)C(=O)N[C@@H](CCCCNC(=O)[C@H](CCCCNC(=O)[C@H](CCCCNc1c(NCCCCCN(O)C(=O)CCC(=O)NCCCCCN(O)C(=O)CCC(=O)NCCCCCN(O)C(C)=O)c(=O)c1=O)Nc1c(NCCCCCN(O)C(=O)CCC(=O)NCCCCCN(O)C(=O)CCC(=O)NCCCCCN(O)C(C)=O)c(=O)c1=O)NC(=O)[C@H](CCCCNc1c(NCCCCCN(O)C(=O)CCC(=O)NCCCCCN(O)C(=O)CCC(=O)NCCCCCN(O)C(C)=O)c(=O)c1=O)Nc1c(NCCCCCN(O)C(=O)CCC(=O)NCCCCCN(O)C(=O)CCC(=O)NCCCCCN(O)C(C)=O)c(=O)c1=O)C(=O)O)C(C)C [zirconium-89 labelled]	ex vivo gamma counting	male Sprague-Dawley rat, knee	intravenous, 1 nmol, 24 h		tissue uptake	0.465 %ID/g
Cc1c(COC(=O)[C@@H]2[C@H](/C=C(\Cl)C(F)(F)F)C2(C)C)cccc1-c1ccccc1 (racemic)	measured: CYP2C9	human, age 6 months, recombinant human CYP2C9	0.1 µM		enzyme contribution to clearance	24.8%
C[C@@H](NC(=O)N1C(=O)[C@H](Cc2ccnc(N)c2)[C@H]1C(=O)O)C1CCCCC1		healthy adult Chinese volunteers	continuous intravenous infusion, 0.3 mg/kg/h, 5-day infusion, CTCAE 5.0 grading		incidence of abnormal liver function	12.5%
O=S(=O)(Nc1ccc2c(c1)B(O)OC2)c1ccc(Cl)cc1	PAMPA		200 µM, 5 h, pH 7.4		membrane retention	7.3%
CC(=O)N(C)[C@H]1CCN(C(=O)c2cnc3c(c2)C[C@](C)(c2ccc(F)cc2)N3)C1	measured: burning sensation in eye	human	oral, dose not given, added: midazolam		adverse event duration	186 days

SMILES	assay	test system	conditions	how to read	quantity	value
C[C@]1(CO)Cc2ncn(-c3ccc(C#N)c(Cl)c3)c2C(=O)O1		human	2 mg single dose		subjects with severe TEAEs	16.7%
N[C@@H]1c2ccccc2OC12CCN(c1cnc3c(N4CCCc5ncccc54)n[nH]c3n1)CC2		advanced solid tumour patients	oral, 75 mg once daily		TEAE causing dose reduction	28.6%
O=C(O)CCC(CP(=O)(O)O)C(=O)O (stereo not shown)		rat, processed derivatized plasma	4 µg/mL, 18 h, 10 °C, autosampler stability		measured concentration	4.27 ± 0.048 µg/mL
CCc1ccc(CC/C=C/c2ccc3c(c2)C(=O)CC3)cc1		Sprague-Dawley rat, female	oral, 450 mg/kg/day, 14 days		MCHC	327 g/L
COc1cc(Nc2ncc(F)c(Nc3ccc4c(n3)NC(=O)C(C)(C)O4)n2)cc(OC)c1OC		HEPES buffer	24 h, pH 7.4, 1% DMSO		solubility	2.4 µM (≈ 1.13 µg/mL)
O=C(O)C(O)(c1cccs1)c1cccs1	measured: metabolite	human, plasma	oral, 50 mg once daily, 5 days, median		dose-normalised free AUC(0-24)	0.282 (ng·h/mL)/mg
O=C(Nc1ccccc1)C1CCN(C(=O)Oc2cccnc2)CC1	psychotropic effects VAS	healthy women	60 mg	reference: pre-dose baseline, direction not given	change in Thoughts score	24
CCOC(=O)C1=C(CN2CCOCC2)NC(c2nccs2)=NC1c1ccc(F)cc1Br (stereo not shown)		healthy human, plasma	340 mg three times daily, without ritonavir		steady-state Cmin	22.9 ng/mL
COc1ccc2nc3cc(Cl)ccc3c(Nc3cc(CN4CCCC4)c(O)c(CN4CCCC4)c3)c2n1		mouse, blood	intraperitoneal, 14 mg/kg		eosinophil count	1.49 10⁹/L
Nc1ncnc2c1ncn2[C@@H]1O[C@@H]2COP(=O)([S-])O[C@@H]3[C@H](O)[C@@H](COP([O-])(=S)O[C@H]2[C@H]1O)O[C@H]3n1cnc2c(N)ncnc21.[Na+].[Na+] (stereo partly shown)		non-tumor-bearing mice, serum	intravenous, 1 mg/kg, toxicity study		total cholesterol	2.98 ± 0.87 mmol/L
Cc1cc(Nc2ncc(Cl)c(Nc3ccccc3S(=O)(=O)C(C)C)n2)c(OC(C)C)cc1C1CCNCC1		advanced solid tumour patients	oral, daily, added: gemcitabine + cisplatin		MTD	450 mg
CC(C)C[C@H](NC(=O)[C@H](CCCCN)NC(=O)OCC1c2ccccc2-c2ccccc21)C(=O)N[C@H](C(=O)N[C@@H](Cc1ccccc1)C(=O)N[C@@H](Cc1ccccc1)C(=O)N[C@@H](CCCCN)C(=O)NCC(=O)N[C@@H](Cc1ccccc1)C(=O)N[C@@H](C)C(=O)N[C@@H](Cc1c[nH]c2ccccc12)C(=O)N[C@@H](CC(N)=O)C(=O)N[C@H](C(=O)N[C@H]1CSSC[C@@H](C(=O)N[C@@H](Cc2c[nH]cn2)C(=O)N[C@@H](CCCNC(=N)N)C(=O)N[C@@H](CCCNC(=N)N)C(=O)N[C@@H](C)C(=O)N[C@@H](CC(N)=O)C(N)=O)NC(=O)[C@H](C(C)C)NC(=O)[C@H](CCCNC(=N)N)NC(=O)[C@H](C(C)C)NC(=O)CNC(=O)[C@H](CC(N)=O)NC(=O)[C@H](CCCNC(=N)N)NC(=O)[C@H](Cc2ccc(O)cc2)NC(=O)[C@H](C(C)C)NC1=O)C(C)C)C(C)C		ICR mouse	ip, 10 mg/kg	direction not given	lachrymation score	0
CCc1cc(C(=O)NC)c2nccc(N3CCc4c(cc(Cn5ccnc5)cc4-c4cn(C)nc4C(F)(F)F)C3=O)c2c1		Sprague Dawley rats, male, bile duct-cannulated, urine	oral, 50 mg/kg, 24 h		fraction of dose excreted	0.4 ± 0.3%
CCC[C@@](N)(CO)CCc1ccc(OCCCCCC(C)C)cc1		dog, male hounds, plasma	oral capsule, 15 mg/kg, geometric mean		AUC(0-72 h)	16 µM·h
[Cl][212Pb][Cl]		athymic mice, C4-2 xenograft, brain	intravenous, 2 h, 212Pb-labelled		tissue uptake	0.2 ± 0.03 %ID/g
COc1cc2c(Oc3ccc4[nH]c(C)cc4c3F)ccnc2cc1OCC1(N)CC1		paediatric recurrent refractory sarcoma	10 mg		grade 1 or 2 Hematuria	0%
COc1ccc([C@@H](O)c2cc(-c3ncnc4cc(N5CCOCC5)ccc34)c(F)cc2Cl)nn1		patients, advanced solid tumours	oral, 250 mg twice daily, treatment-emergent, added: avelumab		hypocalcaemia incidence	3%
